Results pooled from the literature.
Numbered parts are unrelated; each lists some results of a single study. “And” joins repeats or separate records; there may be more than shown.

Study 1
Target: Replicase polyprotein 1ab, nsp13 helicase (rep, Severe acute respiratory syndrome coronavirus 2, UniProt P0DTD1)
Action: inhibitor
Concentration: 20 µM
Compound	inhibition
Cc1cc2c(cc1S(N)(=O)=O)S(=O)(=O)CCC2	2.75%
CCOCc1cc(OC)c(-c2ccc(C[C@H](NC(=O)c3c(F)cccc3F)C(=O)O)cc2)c(OC)c1	-4.51%
O=C(NCc1ccc(Oc2ccccc2)cc1)c1nc(-c2cc(Br)c(O)c(Br)c2)no1	7.27%
CCCCCCCCC(=O)NCc1ccc(O)c(OC)c1	4.31%
CN1C(=O)N(c2cc(Cl)cc(Cl)c2)C(=O)[C@]12CN(c1ccc(C(=O)O)cn1)C[C@H]2c1ccc(C#N)cc1	5.93%
O=c1[nH]c(=O)n([C@H]2C[C@H](O)[C@@H](CO)O2)cc1/C=C/Br	0.46%
C[C@H](O)[C@H](O)[C@H]1CNc2nc(N)[nH]c(=O)c2N1	4.72%
CSCC1CN(/N=C/c2ccc([N+](=O)[O-])o2)C(=O)O1 (stereo not drawn)	4.05%
C[N+]1(CC2CC2)[C@@H]2C[C@@H](OC(=O)[C@H](CO)c3ccccc3)C[C@H]1[C@@H]1O[C@@H]12 (stereo partly drawn)	9.74%
O=C(O)C(O)Cc1ccc(O)c(O)c1 (stereo not drawn)	45.3%
COc1ccc2c(c1OC)C(=O)O[C@@H]2[C@H]1c2c(cc3c(c2OC)OCO3)CCN1C	5.8%
O=S(=O)(O)CCSSCCS(=O)(=O)O	0.85%
Cc1cc(I)ccc1Nc1c(C(=O)NOCC2CC2)cc(F)c(F)c1F	2.95%
CCN1CCN(Cc2ccc(-c3cc4c(N[C@H](C)c5ccccc5)ncnc4[nH]3)cc2)CC1	15.5%
Nc1nc(N)c2nc(CNc3ccc(C(=O)N[C@@H](CCC(=O)O)C(=O)O)cc3)cnc2n1	-0.42%
COc1ccc(-n2c(SCCCN3C(=O)c4cccc5cccc(c45)C3=O)nnc2-c2ccncc2)cc1	1.49%
CC(C)=CCC/C(C)=C/CNCCNC1C2CC3CC(C2)CC1C3 (stereo not drawn)	5.9%
C=C[C@]1(C)CC[C@@H](C(=C)C)C[C@H]1C(=C)C	2.12%
CN1C/C=C/CCOc2cccc(c2)-c2ccnc(n2)Nc2cccc(c2)C1	9.5%
C[C@]12CCC(=O)C=C1CC[C@@H]1[C@@H]2[C@@H](O)C[C@@]2(C)[C@H]1CC[C@]2(O)C(=O)COP(=O)(O)O	3.36%
CC(C)Cc1ccc([C@H](C)C(=O)O)cc1	1%
Cn1c(NC[C@@H](N)Cc2ccccc2)nc(-c2ccncc2)c(-c2ccc3ccccc3c2)c1=O	19.7%
O=C(O)CCC(=O)O	2.14%
CC1(C)S[C@@H]2[C@H](N)C(=O)N2[C@H]1C(=O)O	2.62%
O=C(Oc1ccc([N+](=O)[O-])cc1)N1CCC(C(O)(c2ccc3c(c2)OCO3)c2ccc3c(c2)OCO3)CC1	5.06%

Study 2
Target: RING finger protein unkempt homolog, zinc fingers 1-6, GST-SBP tag (UNK, Homo sapiens, UniProt Q9C0B0, residues 30-357)
Method: RNA Bind-n-Seq
Form: RNA
Sample: in vitro
Concentration: not given
Setting: RNA with constant flanks, human and mouse sites, ends assumed
Baseline: input RNA pool
Reading: higher = stronger binding
All sequences stand within: GGGAGUUCUACAGUCCGACGAUC … CAACAGAGGAUUGAGCAUCA
Target sequence (chain): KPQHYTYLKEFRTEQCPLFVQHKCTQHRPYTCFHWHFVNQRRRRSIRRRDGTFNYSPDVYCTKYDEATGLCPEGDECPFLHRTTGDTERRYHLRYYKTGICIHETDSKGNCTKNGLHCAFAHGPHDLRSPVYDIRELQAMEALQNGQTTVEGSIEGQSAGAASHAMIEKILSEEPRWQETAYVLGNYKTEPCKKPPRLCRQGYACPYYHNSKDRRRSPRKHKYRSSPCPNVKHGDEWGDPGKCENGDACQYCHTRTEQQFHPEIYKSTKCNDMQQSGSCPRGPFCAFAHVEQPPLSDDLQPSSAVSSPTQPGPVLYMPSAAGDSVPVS
Strand	bound/input enrichment
CCAGAACUUGAUAAUGAAAAGCCAGCUGCUGUGGUUGCUCCUCUUACAACAGGAUACACCGUGAAAAUCAGUAAUUAUGGAUGGGAUCAGUCAGAUAAGUUUGUGAAAAUCUACAUUACC	0.246 ratio
GUAGAAUUCCAAAAGACAGUAAAGCUUAUGUACUACUUGUGGAUGUUCCAUGCAGUAACACUGUUUCUAAAUAUCUUCGGAUGCUUGGCUUGGUUUUGUGUUGAUUCUGCAAGAGCGGUU	0.0524 ratio
ACUGAGCCAUUUCCUAUUUUAAAUGGCUUCUACAGUAAAUUAACAACUCAGUUAUUAAACUAGCAGGAUCCUACAAUGAUACAUCUAGUGAAAGUAGAGUUAAUUAACUUAUUUCUAUUU	0.358 ratio
UCCUCGCUGGAGUACAGCAUCCGAGUCUACUGUCUGGAUGACACCCAGGAUGCCCUGAAGGAAAUUUUACAUCUUGAGAGACAGAUGGGAGGACAGCUCCUAGAAGAACCUAAGGCUCUU	0.117 ratio
CAAGGGGAAGACUUCAGUAGAACAUUUAAUGACCAUAAGCAAAAAUACUUGCAGCUCCAGCAAGAAAAAGAACAAGAACUUUCUAAGCUAAAAGAGACUGUAUACAAUUUGAGAGAAGAG	0.373 ratio
GAAUUCAAAGCUGAAUGUGAGACAUUAAAGGAUGACACAGAGAAGCUUAAACAGCUUGAAACAGAGCAGACUAUCUUGCCAUCUCUUCGACCUACCAUUGACAUUAAUGUCAACAGCCAG	0.176 ratio
AUCCUUCAGUGUUUUUUGUCCAUUAUCUGGGUCUUUUGGGCUUUAUCUAUUUUGGCUUCGAUUAGGAAACCCACGAAUCAGGUAGAAACCCCCGGAUGGCUGCCAUAGUUCCAGUUUUAA	0.592 ratio
AUGAUUUUGCAGUGUGGAAGCGUUGAAAAUUGAAAGUUACUGCUUUUCCACUUGCUCAUAUAGUAAAGGGAUCCUUUCAGCUGCCAGUGUUGAAUAAUGUAUCAUCCAGAGUGAUGUUAU	0.225 ratio

Study 3
Target: Centromere-binding protein 1, full length, N-terminal tag (CBF1, Saccharomyces cerevisiae, UniProt P17106, residues 1-351)
Chain of UniProt P17106 (whole entry, looked up): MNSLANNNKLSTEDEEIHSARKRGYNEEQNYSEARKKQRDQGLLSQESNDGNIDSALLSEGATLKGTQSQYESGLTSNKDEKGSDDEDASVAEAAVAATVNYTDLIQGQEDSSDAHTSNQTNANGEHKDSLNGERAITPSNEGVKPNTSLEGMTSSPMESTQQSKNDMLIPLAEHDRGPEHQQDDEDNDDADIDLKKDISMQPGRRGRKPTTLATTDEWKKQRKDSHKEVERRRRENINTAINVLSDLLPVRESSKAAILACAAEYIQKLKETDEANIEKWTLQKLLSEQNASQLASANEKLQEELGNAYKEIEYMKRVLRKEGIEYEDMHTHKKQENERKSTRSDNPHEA
Method: protein-binding microarray
Form: double-stranded DNA, one strand shown
Sample: in vitro
Concentration: 0.8 µM
Setting: whole 60-bp probe, no competitor
Reading: higher = stronger binding
All sequences stand within: … GTCTTGATTCGCTTGACGCTGCTG
Strand	fluorescence intensity [a.u.]
TGTACGAAGCTATAATGCGTGCTTATAGTAGTTAGG	538
CTATATAAATGACATGATGTGAGCCTTAGTAAGTTC	544
GAAAATTGAAAAATTAACGTGGACCCTGGGAAGTAG	546
TGTACGAAGCTATTTCACGTTGTTATAGTAGTTAGG	603
CTAAAAAAAAAGATCATCATGATTACGTAGAAATTC	509
GAAACAATTTTTGAACACGCAATGCCTATGTATTAG	533
TGTACGAAGCTATGCAACACGCATATAGTAGTTAGG	529
CTAGCAATTAACTATCACACCATAGAATGAGTTTTC	618

Study 4
Cell line: HEK-293T
Observed: pseudovirus infection
Method: FDA-approved drug library screen
Organism: VSV pseudotyped with SARS-CoV-2 spike
Concentration: 10 µM
Time: 16 h
Baseline: vehicle-treated
SMILES	GFP-positive cells
COC(=O)C1=C(C)NC(C)=C(C(=O)OC(C)C)C1c1cccc2nonc12 (stereo not drawn)	64.1%
COc1ccc2[nH]c([S+]([O-])Cc3ncc(C)c(OC)c3C)nc2c1 (stereo not drawn)	83.7%
COC(=O)[C@H]1[C@H]2C[C@@H]3c4[nH]c5cc(OC)ccc5c4CCN3C[C@H]2C[C@@H](OC(=O)c2cc(OC)c(OC)c(OC)c2)[C@@H]1OC	65%
Cc1cccc(C)c1NC(=O)C1CCCCN1C (stereo not drawn)	70.3%

Study 5
Organism: SARS-CoV-2
Observed: cytopathic effect
Cell line: Vero E6
Concentration: 10 µM
SMILES	inhibition
Cc1ccc(-n2sc(=O)n(Cc3ccc(F)cc3)c2=O)cc1	-4.1% and 1.4%
Oc1cc2c(cc1O)[C@@H]1c3ccc(O)c(O)c3OC[C@]1(O)C2	-7.3%
O=c1sn(-c2cccc3ccccc23)c(=O)n1Cc1ccccc1	-3.5% and -6.7%
[NH-]c1c[n+](N2CCOCC2)no1	0.8%

Study 6
Target: Ras GTPase-activating protein-binding protein 1, full length (G3BP1, Homo sapiens, UniProt Q13283)
Chain of UniProt Q13283 (whole entry, looked up): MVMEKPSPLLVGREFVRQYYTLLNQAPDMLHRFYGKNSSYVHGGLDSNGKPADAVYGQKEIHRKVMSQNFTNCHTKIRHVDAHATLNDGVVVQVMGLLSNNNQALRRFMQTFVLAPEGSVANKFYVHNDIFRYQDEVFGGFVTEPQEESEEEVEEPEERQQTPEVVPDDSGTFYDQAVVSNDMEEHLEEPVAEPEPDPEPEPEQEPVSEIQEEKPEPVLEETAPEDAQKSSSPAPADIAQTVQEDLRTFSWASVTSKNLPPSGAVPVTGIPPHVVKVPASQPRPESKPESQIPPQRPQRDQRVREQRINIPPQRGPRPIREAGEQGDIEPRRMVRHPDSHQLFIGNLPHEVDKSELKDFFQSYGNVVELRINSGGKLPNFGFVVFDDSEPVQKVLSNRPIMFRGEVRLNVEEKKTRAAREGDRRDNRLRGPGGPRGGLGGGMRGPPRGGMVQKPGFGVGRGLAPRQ
Method: RNA Bind-n-Seq
Form: RNA
Sample: in vitro
Concentration: 200 nM
Setting: whole 134-nt RNA, ends assumed
Added: 150 mM LiCl
Baseline: input library
Reading: higher = stronger binding
All molecules: 7-deaza-guanosine replaces G
All sequences stand within: GGGAGUUCUACAGUCCGACGAUC … UGGAAUUCUCGGGUGUCAAGG
Strand	log2 enrichment
CCUCAAGUCCUGUGCUACACAUCGUAUGUACCGAAUCGGUUUGGUGGAAAGGAAAGUAUUAUGUUACGCCGUUCGGAUCUGCACUUCCAG	0.0481
CAAGUCCUGUGCUACACAUCGUAUGUACCGAAUCGGGGAAAGGGAAAGGGAAAGGGAAAGUAUUAUGUUACGCCGUUCGGAUCUGCACUU	-0.6
UCCUGUGCUACACAUCGUAUGUACCGAAUCGGGAAAAAGGGAAAAAGGGGAAAAAGGGGAAAGUAUUAUGUUACGCCGUUCGGAUCUGCA	-0.255
UCCUCAAGUCCUGUGCUACACAUCGUAUGUACCGAAUCGGCGGCGGGCGGGAAAGUAUUAUGUUACGCCGUUCGGAUCUGCACUUCCAGC	1.11
GUCCUGUGCUACACAUCGUAUGUACCGAAUCGGGGAAAAGGGGAAAAGGGAAAAGGGGAAAGUAUUAUGUUACGCCGUUCGGAUCUGCAC	0.325
CCUCAAGUCCUGUGCUACACAUCGUAUGUACCGAAUCGGGAGGAGGGGAGGGAAAGUAUUAUGUUACGCCGUUCGGAUCUGCACUUCCAG	0.731
UCCUGUGCUACACAUCGUAUGUACCGAAUCGGGCCCCCCCGGCCCCCCCGGCCCCCCCGGAAAGUAUUAUGUUACGCCGUUCGGAUCUGC	0.5
AGUCCUGUGCUACACAUCGUAUGUACCGAAUCGGGGAAAAGGGGAAAAGGAAAAGGGAAAGUAUUAUGUUACGCCGUUCGGAUCUGCACU	-0.558

For quick reference, copied from above (study 1):
Compound	inhibition
CCN1CCN(Cc2ccc(-c3cc4c(N[C@H](C)c5ccccc5)ncnc4[nH]3)cc2)CC1	15.5%
Nc1nc(N)c2nc(CNc3ccc(C(=O)N[C@@H](CCC(=O)O)C(=O)O)cc3)cnc2n1	-0.42%
COc1ccc(-n2c(SCCCN3C(=O)c4cccc5cccc(c45)C3=O)nnc2-c2ccncc2)cc1	1.49%
CC(C)=CCC/C(C)=C/CNCCNC1C2CC3CC(C2)CC1C3 (stereo not drawn)	5.9%
C=C[C@]1(C)CC[C@@H](C(=C)C)C[C@H]1C(=C)C	2.12%
CN1C/C=C/CCOc2cccc(c2)-c2ccnc(n2)Nc2cccc(c2)C1	9.5%
C[C@]12CCC(=O)C=C1CC[C@@H]1[C@@H]2[C@@H](O)C[C@@]2(C)[C@H]1CC[C@]2(O)C(=O)COP(=O)(O)O	3.36%
CC(C)Cc1ccc([C@H](C)C(=O)O)cc1	1%
